{"data": "Experimental data from different studies", "note": "Numbered parts are unrelated; each lists some results of a single study."}
{"data": "Sample 1", "target": "Histone acetyltransferase KAT6A, winged helix 2, GST fusion (KAT6A, Homo sapiens, UniProt Q92794, residues 85-181)", "technique": "protein binding microarray", "molecule type": "double-stranded DNA, one strand shown", "medium": "in vitro", "concentration": "not given", "setting": "8-mer, flanks averaged, mean of 2 arrays, mostly near background", "relative to": "not given", "reading": "higher = stronger binding", "Residues (chain)": "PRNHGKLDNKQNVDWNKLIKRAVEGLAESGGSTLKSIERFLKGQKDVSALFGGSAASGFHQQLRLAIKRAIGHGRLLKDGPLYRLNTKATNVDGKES"}
{"Oligonucleotide": "GATCATAA", "E-score": 0.144}
{"Oligonucleotide": "CTGGCAGC", "E-score": 0.0503}
{"Oligonucleotide": "CATGTAGC", "E-score": 0.0903}
{"Oligonucleotide": "GCTTAAGA", "E-score": 0.0254}
{"Oligonucleotide": "AACTATAG", "E-score": -0.0829}
{"Oligonucleotide": "TAGTTGGA", "E-score": 0.0601}
{"Oligonucleotide": "AGGTCGAG", "E-score": 0.0223}
{"Oligonucleotide": "TCTGAAAA", "E-score": 0.0178}
{"Oligonucleotide": "CGACCAAG", "E-score": 0.102}
{"Oligonucleotide": "CTGATTTC", "E-score": 0.101}
{"Oligonucleotide": "TGCCGGCA", "E-score": 0.183}
{"Oligonucleotide": "CATCTAGG", "E-score": -0.146}
{"Oligonucleotide": "ATGCTACC", "E-score": 0.0599}
{"Oligonucleotide": "ACTATCCC", "E-score": -0.289}
{"Oligonucleotide": "GCGACCGA", "E-score": 0.234}
{"Oligonucleotide": "CCCCGCCC", "E-score": 0.223}
{"Oligonucleotide": "ACCATTTG", "E-score": 0.0302}
{"data": "Sample 2", "target": "TAR DNA-binding protein 43, full length, His tag (TARDBP, Homo sapiens, UniProt Q13148, residues 1-414)", "technique": "RNA Bind-n-Seq", "molecule type": "RNA", "medium": "in vitro", "concentration": "20 nM", "setting": "6-mer, flanks averaged, single round", "added": "150 mM LiCl", "relative to": "input library", "reading": "higher = stronger binding"}
{"Oligonucleotide": "GGUACU", "6-mer enrichment (R)": 0.906}
{"Oligonucleotide": "AUCUUC", "6-mer enrichment (R)": 0.842}
{"Oligonucleotide": "AUCGCU", "6-mer enrichment (R)": 0.832}
{"Oligonucleotide": "ACCAUG", "6-mer enrichment (R)": 0.882}
{"Oligonucleotide": "AUUUCU", "6-mer enrichment (R)": 1.01}
{"Oligonucleotide": "UGACCC", "6-mer enrichment (R)": 1.02}
{"Oligonucleotide": "AAGGUC", "6-mer enrichment (R)": 0.841}
{"Oligonucleotide": "UGGACG", "6-mer enrichment (R)": 1.03}
{"Oligonucleotide": "GGGACC", "6-mer enrichment (R)": 1.02}
{"Oligonucleotide": "GGAAGC", "6-mer enrichment (R)": 0.962}
{"Oligonucleotide": "GCCGAC", "6-mer enrichment (R)": 0.871}
{"Oligonucleotide": "GUGACG", "6-mer enrichment (R)": 1.03}
{"Oligonucleotide": "GAUGAC", "6-mer enrichment (R)": 0.888}
{"Oligonucleotide": "UUACCA", "6-mer enrichment (R)": 0.905}
{"Oligonucleotide": "ACCUAA", "6-mer enrichment (R)": 0.838}
{"Oligonucleotide": "AGCGUG", "6-mer enrichment (R)": 1.21}
{"Oligonucleotide": "CUUAGU", "6-mer enrichment (R)": 0.936}
{"Oligonucleotide": "AUGUGG", "6-mer enrichment (R)": 1.35}
{"Oligonucleotide": "CGCACG", "6-mer enrichment (R)": 0.88}
{"Oligonucleotide": "UGCUGA", "6-mer enrichment (R)": 0.953}
{"Oligonucleotide": "UGGUCG", "6-mer enrichment (R)": 1.08}
{"Oligonucleotide": "UGUUUC", "6-mer enrichment (R)": 1.17}
{"Oligonucleotide": "UGGCGG", "6-mer enrichment (R)": 1.16}
{"Oligonucleotide": "UUUGAU", "6-mer enrichment (R)": 1.04}
{"data": "Sample 3", "target": "Sal-like protein 4, full length isoform B (SALL4, Homo sapiens, UniProt Q9UJQ4-2, residues 1-616)", "technique": "universal PBM", "molecule type": "double-stranded DNA, one strand shown", "medium": "in vitro", "concentration": "not given", "setting": "8-mer, flanks averaged, mean of replicates", "reading": "higher = stronger binding", "Target sequence (chain)": "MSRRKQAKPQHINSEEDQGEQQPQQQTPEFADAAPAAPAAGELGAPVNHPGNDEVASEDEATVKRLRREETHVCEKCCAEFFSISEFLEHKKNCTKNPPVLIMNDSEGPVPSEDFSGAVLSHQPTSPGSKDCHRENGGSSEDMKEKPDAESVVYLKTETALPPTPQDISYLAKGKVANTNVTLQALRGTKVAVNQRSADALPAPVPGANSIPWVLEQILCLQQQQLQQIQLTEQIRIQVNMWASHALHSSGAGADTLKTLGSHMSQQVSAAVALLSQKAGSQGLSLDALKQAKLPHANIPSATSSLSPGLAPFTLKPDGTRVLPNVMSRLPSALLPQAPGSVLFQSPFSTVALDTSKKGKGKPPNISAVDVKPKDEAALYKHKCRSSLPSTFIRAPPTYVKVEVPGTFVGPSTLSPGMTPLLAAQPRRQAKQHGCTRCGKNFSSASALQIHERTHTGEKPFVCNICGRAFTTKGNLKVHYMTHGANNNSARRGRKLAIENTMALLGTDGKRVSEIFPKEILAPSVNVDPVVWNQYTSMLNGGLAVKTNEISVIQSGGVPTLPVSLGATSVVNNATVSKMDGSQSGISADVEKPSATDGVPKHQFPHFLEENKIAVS"}
{"Oligonucleotide": "ATTCTTGC", "E-score": 0.0898}
{"Oligonucleotide": "CCTGAAAA", "E-score": 0.12}
{"Oligonucleotide": "ACTCGAAT", "E-score": 0.0339}
{"Oligonucleotide": "CATGGAGA", "E-score": 0.0312}
{"Oligonucleotide": "GGGTTCAC", "E-score": -0.209}
{"Oligonucleotide": "CGAACCAG", "E-score": -0.0834}
{"Oligonucleotide": "TAATACCA", "E-score": 0.236}
{"Oligonucleotide": "AGAGGCAC", "E-score": -0.139}
{"Oligonucleotide": "CAGCTGCG", "E-score": -0.299}
{"Oligonucleotide": "GATCTGTA", "E-score": 0.00297}
{"Oligonucleotide": "GAACCGCC", "E-score": -0.245}
{"Oligonucleotide": "ATCAAAGC", "E-score": -0.0755}
{"Oligonucleotide": "AAAACCAC", "E-score": 0.124}
{"Oligonucleotide": "ACGCGTCC", "E-score": -0.206}
{"Oligonucleotide": "AGGTGCGA", "E-score": -0.225}
{"Oligonucleotide": "CTGTCAAG", "E-score": -0.0786}
{"Oligonucleotide": "CAATTGCA", "E-score": 0.16}
{"Oligonucleotide": "GAACCAGA", "E-score": -0.0534}
{"Oligonucleotide": "ACATTCCC", "E-score": 0.0835}
{"Oligonucleotide": "ATCATAAC", "E-score": 0.403}
{"Oligonucleotide": "CTGCTGCC", "E-score": -0.233}
{"Oligonucleotide": "CACTCATG", "E-score": 0.0224}
{"Oligonucleotide": "TGAAAGCA", "E-score": 0.13}
{"Oligonucleotide": "ACTGAATC", "E-score": -0.067}
{"Oligonucleotide": "ACCTAGAA", "E-score": 0.136}
{"data": "Sample 4", "target": "Interferon regulatory factor 7, full length, phosphomimetic (IRF7, Homo sapiens, UniProt Q92985, residues 1-503, S101K/S471D/S472D/S475D/S476D/S477D/S483D/S484D/S487D)", "technique": "protein-binding microarray", "molecule type": "double-stranded DNA, one strand shown", "medium": "in vitro", "concentration": "250 nM", "setting": "60-bp whole probe", "added": "salmon DNA 0.4 mg/ml", "relative to": "random background probes", "reading": "higher = stronger binding", "all sequences stand within": "GCCTAGCAC … GTCTTGATTCGCTTGACGCTGCTG", "UniProt Q92985, sequence (whole entry, unmodified, looked up)": "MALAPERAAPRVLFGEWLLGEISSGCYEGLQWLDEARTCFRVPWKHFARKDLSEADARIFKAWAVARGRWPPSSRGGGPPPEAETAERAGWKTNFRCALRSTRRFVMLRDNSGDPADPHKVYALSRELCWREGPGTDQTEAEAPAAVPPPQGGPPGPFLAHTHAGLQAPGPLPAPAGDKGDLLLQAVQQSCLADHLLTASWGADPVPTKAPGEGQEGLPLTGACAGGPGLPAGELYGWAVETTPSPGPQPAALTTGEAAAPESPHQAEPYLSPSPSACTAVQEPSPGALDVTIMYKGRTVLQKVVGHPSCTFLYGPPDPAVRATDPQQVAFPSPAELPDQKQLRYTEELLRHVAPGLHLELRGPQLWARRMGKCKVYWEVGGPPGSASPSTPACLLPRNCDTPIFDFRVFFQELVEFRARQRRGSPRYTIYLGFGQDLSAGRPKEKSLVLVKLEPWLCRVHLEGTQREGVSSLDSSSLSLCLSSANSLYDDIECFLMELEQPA"}
{"Oligonucleotide": "TTAGGTATCCTACTGGTTTAGTGCTAG", "log fluorescence [z-score]": -0.0724}
{"Oligonucleotide": "ATAGAACTGAGACTGGATTAGTGCTAG", "log fluorescence [z-score]": -0.289}
{"Oligonucleotide": "GACGATTCCGGGTTTCGAGACGTGCTA", "log fluorescence [z-score]": 3.29}
{"Oligonucleotide": "TCAGTCCTCTCTCTATTACTGTGCTAG", "log fluorescence [z-score]": 0.231}
{"Oligonucleotide": "TCACTTTCCAACTCTGTTACTGTGCTA", "log fluorescence [z-score]": 2.15}
{"Oligonucleotide": "TTAGGTTTCCTTCGCCTTTAGTGCTAG", "log fluorescence [z-score]": 0.956}
{"Oligonucleotide": "TTCTTTATGCACTCTTTACATGTGCTA", "log fluorescence [z-score]": 0.831}
{"Oligonucleotide": "GTGTTTTCATTTTATGACAGCGTGCTA", "log fluorescence [z-score]": 4.49}
{"Oligonucleotide": "TTAGGTTTCGCTTCCGGTTAGTGCTAG", "log fluorescence [z-score]": 10.8}
{"Oligonucleotide": "CACGAACTGAGTTTCGAGACGTGCTAG", "log fluorescence [z-score]": 3.7}
{"Oligonucleotide": "AGAGAGAGTGAGGAACAACAGTGCTAG", "log fluorescence [z-score]": -0.569}
{"Oligonucleotide": "TTAGGTTCGGGTTTCGGTTAGTGCTAG", "log fluorescence [z-score]": 10.2}
{"Oligonucleotide": "GACGGTATCGTCTTTCGGGACGTGCTA", "log fluorescence [z-score]": 0.294}
{"Oligonucleotide": "TCACCTTCAGCTCTAGGACTGTGCTAG", "log fluorescence [z-score]": -0.277}
{"Oligonucleotide": "GACGAACTGATACTGGAGACGTGCTAG", "log fluorescence [z-score]": -0.059}
{"Oligonucleotide": "TTAGATCTCGGGACTGGATTAGTGCTA", "log fluorescence [z-score]": -0.183}
{"Oligonucleotide": "GACGGACTGGGGACTGAGGACGTGCTA", "log fluorescence [z-score]": -0.949}
{"Oligonucleotide": "GACCGTTTCGACTTTCGGGACGTGCTA", "log fluorescence [z-score]": 5.56}
{"Oligonucleotide": "CACTTTGGATAACCAAAAACGTGCTAG", "log fluorescence [z-score]": 1.63}
{"data": "Sample 5", "target": "RNA binding protein fox-1 homolog 2, RRM domain, GST-SBP tag (RBFOX2, Homo sapiens, UniProt O43251-10, residues 100-194)", "technique": "RNA Bind-n-Seq", "molecule type": "RNA", "medium": "in vitro", "concentration": "365 nM", "setting": "natural RNA segment, single round, ends assumed", "relative to": "no-protein control", "reading": "higher = stronger binding", "all sequences stand within": "GGGAGUUCUACAGUCCGACGAUC … UGGAAUUCUCGGGUGCCAA", "Target sequence (chain)": "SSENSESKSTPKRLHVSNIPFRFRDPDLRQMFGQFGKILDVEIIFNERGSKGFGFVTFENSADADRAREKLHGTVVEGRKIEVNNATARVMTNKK"}
{"Oligonucleotide": "AAUAAGGCCCAAUUCAUCCCACAGCACUGAUCAUCUUUUAAUAUCCCACCCUAAGCGAACGGUAAGAAGGCCUCUCUUAAGAAGGGGAGACAGAUGGUCCUUAACUACUC", "RBNS enrichment (R)": 0.379}
{"Oligonucleotide": "GUCUGCGUGGGCUUUCUGUCUCUCAGCUCCCUUUCCCAGCCCACAGGGACAGAAGUACCAUCCACUUUCAAGUCCAGCUCCUUCCUAAGAGAUUCUUCCACCUUACUCUG", "RBNS enrichment (R)": 0.505}
{"Oligonucleotide": "CAUAUAAAUCUUGCUUAAAUUUUGUCCUAUCCUUUUGUUACCUUAUCAAAUGAAAUAUUACAGCACCUAGAAAAUAAUUUAGUUUUGCUUGCUUCCAUUGAUCAGUCUUU", "RBNS enrichment (R)": 2.01}
{"Oligonucleotide": "UGCUUCUGCGCCUUCUGCGUUUGGACAUAGGACUCUGCAGGGCCGCCCUCUCUAACUGGCCUGGCUCUGGAAGGGCUGGUGAGGACUCUGCCUCCUUGCCUGCCUACAAG", "RBNS enrichment (R)": 0.575}
{"Oligonucleotide": "UGUGUGGAAAGAAAACAGAAGUGAGAAAGAAGUUACCUUGUAUUAUGUAUUUUUACUACACUUUUCUUAAAAAUGGAGCAGUGGGAAAACUCUGAAAGAGAUUGACAUUU", "RBNS enrichment (R)": 0.503}
{"Oligonucleotide": "AAGCACCCCUAGAUAGUGUGAUUCUGUCAGAUAGCAUUUAUGCAAAAAUCUAUGAAGUUAAAAGAUCGUAGAAGCCAAAUGAAAUGUACAUAUCUACUGACUGAUGACAA", "RBNS enrichment (R)": 0.263}
{"Oligonucleotide": "GCAUUUAGUUUUGUCUUUCUCAGGGUAUAGUCAAUAUGCCUGCAGGAGUUUCUAUAGCGAGACAUAGAAUAGUAUUCUGAUCAGUUGCCAAAGAAUCUAGGAAAUUAGUU", "RBNS enrichment (R)": 0.532}
{"Oligonucleotide": "CUCUAAAGUACUUGAGUGGUGCUAAGCUGGGCCUUGCAGAGCUUAGCUUAUAGCAGACCUUGAGCCUCCUUGGUUACAGCAGGUUGUGGAUAAGUUACAUCGGGCUUCAU", "RBNS enrichment (R)": 0.423}
